Published values pooled from the literature.
Parts stem from different laboratories: compare values within a part only. ± marks the error that the study gave.
Sequence of UniProt P10721 (whole entry, unmodified, looked up): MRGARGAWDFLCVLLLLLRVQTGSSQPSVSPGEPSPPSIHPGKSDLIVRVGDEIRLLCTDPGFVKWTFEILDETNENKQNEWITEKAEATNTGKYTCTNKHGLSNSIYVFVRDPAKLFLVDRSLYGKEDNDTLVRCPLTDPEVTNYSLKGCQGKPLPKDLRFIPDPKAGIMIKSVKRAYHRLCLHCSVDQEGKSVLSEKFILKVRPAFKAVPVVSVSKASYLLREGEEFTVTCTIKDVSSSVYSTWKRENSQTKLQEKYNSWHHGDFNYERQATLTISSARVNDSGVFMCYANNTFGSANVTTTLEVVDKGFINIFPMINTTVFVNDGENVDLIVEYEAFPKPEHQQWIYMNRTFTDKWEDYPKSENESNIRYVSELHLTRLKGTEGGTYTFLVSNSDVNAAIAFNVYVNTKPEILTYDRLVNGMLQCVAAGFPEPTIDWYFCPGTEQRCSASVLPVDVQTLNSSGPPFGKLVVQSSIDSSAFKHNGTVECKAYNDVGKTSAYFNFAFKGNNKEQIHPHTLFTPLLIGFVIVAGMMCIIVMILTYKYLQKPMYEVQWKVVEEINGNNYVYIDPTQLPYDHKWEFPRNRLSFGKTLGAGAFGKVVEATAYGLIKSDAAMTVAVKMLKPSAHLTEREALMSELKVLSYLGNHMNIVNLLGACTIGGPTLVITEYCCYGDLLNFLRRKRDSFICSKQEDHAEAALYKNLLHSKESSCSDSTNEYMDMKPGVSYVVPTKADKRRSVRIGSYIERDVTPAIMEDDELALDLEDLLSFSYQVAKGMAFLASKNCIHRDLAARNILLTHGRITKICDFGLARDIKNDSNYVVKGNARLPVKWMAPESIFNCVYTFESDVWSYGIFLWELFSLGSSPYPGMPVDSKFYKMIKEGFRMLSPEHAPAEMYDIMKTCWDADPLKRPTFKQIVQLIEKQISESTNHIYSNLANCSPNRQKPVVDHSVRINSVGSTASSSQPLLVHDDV
Sequence of UniProt Q9NYY3 (whole entry, looked up): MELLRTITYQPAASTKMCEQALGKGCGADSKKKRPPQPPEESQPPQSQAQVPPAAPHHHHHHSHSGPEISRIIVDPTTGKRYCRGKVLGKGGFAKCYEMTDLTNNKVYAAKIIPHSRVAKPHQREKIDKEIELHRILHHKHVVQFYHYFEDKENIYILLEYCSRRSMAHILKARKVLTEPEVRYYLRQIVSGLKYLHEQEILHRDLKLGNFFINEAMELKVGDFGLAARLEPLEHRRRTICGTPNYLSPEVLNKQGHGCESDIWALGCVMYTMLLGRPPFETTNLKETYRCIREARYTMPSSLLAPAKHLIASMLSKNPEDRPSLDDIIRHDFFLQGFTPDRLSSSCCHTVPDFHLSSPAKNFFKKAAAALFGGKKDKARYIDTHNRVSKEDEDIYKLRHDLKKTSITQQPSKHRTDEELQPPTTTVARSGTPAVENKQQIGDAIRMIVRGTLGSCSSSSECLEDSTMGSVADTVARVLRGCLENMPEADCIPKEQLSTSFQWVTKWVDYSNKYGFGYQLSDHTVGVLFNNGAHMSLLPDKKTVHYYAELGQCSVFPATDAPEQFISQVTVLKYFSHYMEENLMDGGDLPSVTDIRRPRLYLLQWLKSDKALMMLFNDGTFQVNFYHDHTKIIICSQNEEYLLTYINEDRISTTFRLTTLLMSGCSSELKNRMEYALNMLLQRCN
Sequence of UniProt O14733 (whole entry, looked up): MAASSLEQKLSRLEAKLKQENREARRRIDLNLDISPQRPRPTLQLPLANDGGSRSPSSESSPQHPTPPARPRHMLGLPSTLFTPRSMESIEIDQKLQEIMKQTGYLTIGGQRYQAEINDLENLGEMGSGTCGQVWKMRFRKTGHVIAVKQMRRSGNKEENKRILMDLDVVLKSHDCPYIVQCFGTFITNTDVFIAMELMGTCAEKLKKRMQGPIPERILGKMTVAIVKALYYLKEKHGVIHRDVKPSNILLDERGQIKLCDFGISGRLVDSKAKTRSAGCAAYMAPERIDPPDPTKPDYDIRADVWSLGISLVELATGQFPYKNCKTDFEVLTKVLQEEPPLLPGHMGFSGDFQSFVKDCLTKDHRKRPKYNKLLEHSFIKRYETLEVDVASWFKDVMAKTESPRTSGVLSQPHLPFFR
Sequence of UniProt Q9Y2I7 (whole entry, looked up): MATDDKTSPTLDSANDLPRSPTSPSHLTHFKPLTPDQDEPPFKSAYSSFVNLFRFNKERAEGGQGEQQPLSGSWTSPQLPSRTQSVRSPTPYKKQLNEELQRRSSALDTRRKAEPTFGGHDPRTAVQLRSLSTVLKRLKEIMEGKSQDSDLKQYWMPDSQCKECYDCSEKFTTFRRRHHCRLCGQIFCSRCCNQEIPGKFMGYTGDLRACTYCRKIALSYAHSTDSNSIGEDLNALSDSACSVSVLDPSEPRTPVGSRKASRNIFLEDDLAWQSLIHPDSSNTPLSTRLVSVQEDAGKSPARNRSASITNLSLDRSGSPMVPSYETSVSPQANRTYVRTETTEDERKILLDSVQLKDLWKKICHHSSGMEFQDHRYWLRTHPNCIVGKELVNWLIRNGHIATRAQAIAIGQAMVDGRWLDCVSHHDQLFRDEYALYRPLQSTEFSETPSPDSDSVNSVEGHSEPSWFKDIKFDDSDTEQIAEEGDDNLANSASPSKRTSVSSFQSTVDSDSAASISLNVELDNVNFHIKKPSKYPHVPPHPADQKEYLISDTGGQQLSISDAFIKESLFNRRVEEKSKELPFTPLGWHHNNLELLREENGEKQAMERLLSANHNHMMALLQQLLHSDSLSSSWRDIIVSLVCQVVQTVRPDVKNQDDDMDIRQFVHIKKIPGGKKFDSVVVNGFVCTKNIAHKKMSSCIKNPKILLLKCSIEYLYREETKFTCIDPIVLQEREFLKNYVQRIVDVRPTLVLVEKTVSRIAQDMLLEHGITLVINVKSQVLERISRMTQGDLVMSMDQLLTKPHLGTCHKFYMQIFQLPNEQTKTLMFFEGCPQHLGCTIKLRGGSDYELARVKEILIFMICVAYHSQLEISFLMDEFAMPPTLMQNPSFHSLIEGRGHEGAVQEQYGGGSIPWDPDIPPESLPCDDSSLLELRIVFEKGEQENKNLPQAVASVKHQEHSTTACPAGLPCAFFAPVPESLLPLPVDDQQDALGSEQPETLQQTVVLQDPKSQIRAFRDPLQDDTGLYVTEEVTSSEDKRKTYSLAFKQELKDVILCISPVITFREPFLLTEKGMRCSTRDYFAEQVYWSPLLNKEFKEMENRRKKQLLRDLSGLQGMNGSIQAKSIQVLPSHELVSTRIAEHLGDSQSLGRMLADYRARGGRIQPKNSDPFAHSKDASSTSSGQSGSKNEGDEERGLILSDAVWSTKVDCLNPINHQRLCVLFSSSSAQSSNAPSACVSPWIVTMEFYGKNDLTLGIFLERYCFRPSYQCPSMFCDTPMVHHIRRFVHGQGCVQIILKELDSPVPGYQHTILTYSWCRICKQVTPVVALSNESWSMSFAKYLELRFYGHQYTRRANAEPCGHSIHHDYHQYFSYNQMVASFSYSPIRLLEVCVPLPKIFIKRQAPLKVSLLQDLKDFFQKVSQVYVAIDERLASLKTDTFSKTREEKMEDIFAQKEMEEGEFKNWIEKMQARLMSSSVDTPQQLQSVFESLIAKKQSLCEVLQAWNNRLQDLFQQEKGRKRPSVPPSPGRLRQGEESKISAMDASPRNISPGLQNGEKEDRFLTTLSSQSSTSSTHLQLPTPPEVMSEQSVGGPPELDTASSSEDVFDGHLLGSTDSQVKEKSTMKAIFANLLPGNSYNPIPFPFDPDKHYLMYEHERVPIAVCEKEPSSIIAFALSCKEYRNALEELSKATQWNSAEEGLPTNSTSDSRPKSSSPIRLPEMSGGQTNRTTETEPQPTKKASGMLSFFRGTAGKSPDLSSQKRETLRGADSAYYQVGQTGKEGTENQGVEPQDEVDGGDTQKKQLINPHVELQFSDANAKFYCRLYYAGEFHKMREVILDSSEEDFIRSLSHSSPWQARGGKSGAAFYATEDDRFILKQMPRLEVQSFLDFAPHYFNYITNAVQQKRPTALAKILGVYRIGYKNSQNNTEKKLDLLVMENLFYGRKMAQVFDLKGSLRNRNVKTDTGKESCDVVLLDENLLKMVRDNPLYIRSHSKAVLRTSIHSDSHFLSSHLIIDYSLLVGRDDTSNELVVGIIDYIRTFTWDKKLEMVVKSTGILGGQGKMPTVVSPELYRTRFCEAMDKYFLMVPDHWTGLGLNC
Sequence of UniProt O14757 (whole entry, looked up): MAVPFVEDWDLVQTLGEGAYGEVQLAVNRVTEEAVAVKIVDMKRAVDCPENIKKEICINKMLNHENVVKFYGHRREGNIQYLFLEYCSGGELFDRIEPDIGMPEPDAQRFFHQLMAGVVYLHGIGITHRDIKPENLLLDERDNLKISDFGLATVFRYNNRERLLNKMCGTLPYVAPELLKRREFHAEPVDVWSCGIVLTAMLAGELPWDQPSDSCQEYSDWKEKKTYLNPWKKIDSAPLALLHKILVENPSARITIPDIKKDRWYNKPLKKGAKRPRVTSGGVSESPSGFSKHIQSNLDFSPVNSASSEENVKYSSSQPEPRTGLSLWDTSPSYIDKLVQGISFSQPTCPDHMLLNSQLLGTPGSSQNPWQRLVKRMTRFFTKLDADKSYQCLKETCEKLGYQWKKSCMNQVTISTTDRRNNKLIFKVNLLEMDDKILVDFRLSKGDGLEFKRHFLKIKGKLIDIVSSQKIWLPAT
Sequence of UniProt P52564 (whole entry, looked up): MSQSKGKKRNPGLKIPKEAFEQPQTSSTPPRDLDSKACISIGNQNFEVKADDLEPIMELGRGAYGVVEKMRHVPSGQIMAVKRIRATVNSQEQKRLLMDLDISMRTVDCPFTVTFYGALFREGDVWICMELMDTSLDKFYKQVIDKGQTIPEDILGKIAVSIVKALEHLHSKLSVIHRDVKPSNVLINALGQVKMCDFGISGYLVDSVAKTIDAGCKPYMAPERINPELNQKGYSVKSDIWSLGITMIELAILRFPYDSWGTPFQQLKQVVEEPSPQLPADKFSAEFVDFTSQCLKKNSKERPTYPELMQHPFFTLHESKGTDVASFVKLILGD

Sample 1 — read-out: cell-free assay; technique: competition with immobilised ligand; concentration: 1 µM; quantity: remaining binding
Compound: Nc1cnc(N2CCc3cc(S(=O)(=O)Nc4c(F)cc(Cl)cc4F)cc(N4CCCC4=O)c32)nc1
Dual specificity protein kinase CLK1 (CLK1, Homo sapiens, UniProt P49759): 85%
Mast/stem cell growth factor receptor Kit (KIT, Homo sapiens, UniProt P10721, D816V): 100%
Hepatocyte growth factor receptor (MET, Homo sapiens, UniProt P08581): 69%
Serine/threonine-protein kinase 3 (STK3, Homo sapiens, UniProt Q13188): 96%
Serine/threonine-protein kinase PLK2 (PLK2, Homo sapiens, UniProt Q9NYY3): 100%
Dual specificity tyrosine-phosphorylation-regulated kinase 1A (DYRK1A, Homo sapiens, UniProt Q13627): 80%
Dual specificity mitogen-activated protein kinase kinase 7 (MAP2K7, Homo sapiens, UniProt O14733): 100%
1-phosphatidylinositol 3-phosphate 5-kinase (PIKFYVE, Homo sapiens, UniProt Q9Y2I7): 100%

Sample 2 — species: human; medium: microsomes or S9; concentration: 2 µM; time: 0.5 h; quantity: remaining compound
CCCNc1nc(C)cc(=O)n1Cc1ccc(-c2ccccc2-c2nnn[nH]2)cc1: 2.33%
Cc1ccccc1NCc1cc(=O)n2nc(-c3ccccc3C)nc2[nH]1: 4.39%
O=C(COc1ccccc1-c1nnc[nH]1)N1CCc2ccccc21: 97.4%
CC1(C)Cc2c(sc3[nH]c(=O)n(C4CCCCC4)c(=O)c23)CO1: 17.1%
c1ccc2c(c1)n(CCN1CCCC1)c1nc(-c3ccc4c(c3)OCO4)cn21: 15.1%
COc1cc(CNC(C)(C)C)cc(Br)c1OCc1cccs1: 3.48%
CCC(C)NC(=O)c1ccc2c(=O)n(C(C)C)c3nn(CC(=O)Nc4ccc(C(C)C)cc4)c(=O)n3c2c1 (centres unmarked): 61.3%
O=S1(=O)N=C(NCCc2cccs2)c2ccccc21: 77.8%
COc1cc2c(c(OC)c1OC)-c1c(cc(OC)c(OC)c1OC)C[C@](C)(O)[C@@H](C)C2: 99.5%
Cc1cccc(NC(=O)NC(C)c2n[nH]c(=O)n2C)n1 (centres unmarked): > 100%
Cc1cc(C[C@@H]2COC[C@@H]2NC(=O)c2cc(=O)n(-c3ccccc3)[nH]2)on1: 74.6%
O=C(C1CCCN1S(=O)(=O)c1ccc(-c2ccc(=O)[nH]n2)s1)N1CCc2ccccc21 (centres unmarked): 21%

Sample 3 — read-out: kinase activity; quantity: remaining activity
Compound: COc1cc(C(=O)N2CCC(N3CCN(C)CC3)CC2)ccc1Nc1ncc2c(n1)N(C)c1ccccc1C(=O)N2C
MLK1; 10 µM: 96 ± 1%
SGK1; 10 µM: 89 ± 2%
SRPK1; 1 µM: 98 ± 9%
PKD1; 1 µM: 74 ± 8%
EPH-B3; 10 µM: 71 ± 3%
MELK; 1 µM: 88 ± 8%
EPH-B2; 10 µM: 93 ± 11%
CAMKKb; 1 µM: 89 ± 4%

Sample 4 — Structure (SMILES): Cc1ccc(S(=O)(=O)/C=C/C#N)cc1; read-out: enzyme activity; mode: inhibitor; concentration: 0.5 µM; baseline: control; quantity: remaining activity
Ephrin type-A receptor 5 (EPHA5, Homo sapiens, UniProt P54756): 111%
Casein kinase II subunit alpha (CSNK2A1, Homo sapiens, UniProt P68400): 94.3%
Mast/stem cell growth factor receptor Kit (KIT, Homo sapiens, UniProt P10721): 102%
Serine/threonine-protein kinase Chk1 (CHEK1, Homo sapiens, UniProt O14757): 97.5%
Mitogen-activated protein kinase 13 (MAPK13, Homo sapiens, UniProt O15264): 92.2%
Interleukin-1 receptor-associated kinase 4 (IRAK4, Homo sapiens, UniProt Q9NWZ3): 161%
Serine/threonine-protein kinase PLK2 (PLK2, Homo sapiens, UniProt Q9NYY3): 103%
Serine/threonine-protein kinase Nek4 (NEK4, Homo sapiens, UniProt P51957): 94.3%
Serine/threonine-protein kinase WNK2 (WNK2, Homo sapiens, UniProt Q9Y3S1): 124%
Tyrosine-protein kinase BTK (BTK, Homo sapiens, UniProt Q06187): 94.4%
Mitogen-activated protein kinase 12 (MAPK12, Homo sapiens, UniProt P53778): 90.5%
Dual specificity mitogen-activated protein kinase kinase 6 (MAP2K6, Homo sapiens, UniProt P52564): 98.4%
MAP kinase-interacting serine/threonine-protein kinase 2 (MKNK2, Homo sapiens, UniProt Q9HBH9): 119%
RAC-gamma serine/threonine-protein kinase (AKT3, Homo sapiens, UniProt Q9Y243): 93.7%
Leucine-rich repeat serine/threonine-protein kinase 2 (LRRK2, Homo sapiens, UniProt Q5S007): 115%
Protein kinase C iota type (PRKCI, Homo sapiens, UniProt P41743): 90.3%
Tyrosine-protein kinase Lyn (LYN, Homo sapiens, UniProt P07948): 101%
Casein kinase I isoform alpha (CSNK1A1, Homo sapiens, UniProt P48729): 95.6%
Mitogen-activated protein kinase kinase kinase kinase 2 (MAP4K2, Homo sapiens, UniProt Q12851): 130%
cGMP-dependent protein kinase 1 (PRKG1, Homo sapiens, UniProt Q13976): 96.7%
Protein kinase C delta type (PRKCD, Homo sapiens, UniProt Q05655): 95.6%
Cyclin-dependent kinase 9, with cyclin T1 (CDK9, Homo sapiens, UniProt P50750): 98.2%

Repeated from above (sample 1):
Dual specificity protein kinase CLK1 (CLK1, Homo sapiens, UniProt P49759): 85%
Mast/stem cell growth factor receptor Kit (KIT, Homo sapiens, UniProt P10721, D816V): 100%
Hepatocyte growth factor receptor (MET, Homo sapiens, UniProt P08581): 69%
Serine/threonine-protein kinase 3 (STK3, Homo sapiens, UniProt Q13188): 96%
Serine/threonine-protein kinase PLK2 (PLK2, Homo sapiens, UniProt Q9NYY3): 100%
Dual specificity tyrosine-phosphorylation-regulated kinase 1A (DYRK1A, Homo sapiens, UniProt Q13627): 80%
Dual specificity mitogen-activated protein kinase kinase 7 (MAP2K7, Homo sapiens, UniProt O14733): 100%
1-phosphatidylinositol 3-phosphate 5-kinase (PIKFYVE, Homo sapiens, UniProt Q9Y2I7): 100%
